Results from different studies.
Compare with care: the assays were run in different laboratories. “And” joins repeats or separate records; there may be more than shown. ± gives the spread as reported. No end group written: not given here.
B1: bicyclic; chain AATCHCRRSCYSTEYSYGTCTVMGINHRFCCL (also: bicyclic or more (positions not given here))
UniProt Q9UNQ0, sequence (whole entry, looked up): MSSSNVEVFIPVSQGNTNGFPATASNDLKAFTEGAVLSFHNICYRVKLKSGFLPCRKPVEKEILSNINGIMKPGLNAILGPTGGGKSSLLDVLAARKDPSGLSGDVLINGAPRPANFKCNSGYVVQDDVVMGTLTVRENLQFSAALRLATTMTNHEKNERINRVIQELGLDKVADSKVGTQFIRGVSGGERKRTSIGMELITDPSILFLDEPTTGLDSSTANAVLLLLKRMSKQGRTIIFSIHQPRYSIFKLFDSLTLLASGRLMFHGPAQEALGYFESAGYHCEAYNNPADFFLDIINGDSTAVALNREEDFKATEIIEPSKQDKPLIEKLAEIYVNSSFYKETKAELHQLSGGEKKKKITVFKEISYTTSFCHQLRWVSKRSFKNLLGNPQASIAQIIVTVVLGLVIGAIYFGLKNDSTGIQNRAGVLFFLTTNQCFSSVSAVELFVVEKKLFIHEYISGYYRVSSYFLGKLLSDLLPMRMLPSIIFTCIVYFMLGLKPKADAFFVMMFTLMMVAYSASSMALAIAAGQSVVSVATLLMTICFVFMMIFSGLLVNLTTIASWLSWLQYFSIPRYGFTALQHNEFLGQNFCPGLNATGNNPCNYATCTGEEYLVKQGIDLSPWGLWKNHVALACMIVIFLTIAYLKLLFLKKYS
UniProt Q9NPD5, sequence (whole entry, looked up): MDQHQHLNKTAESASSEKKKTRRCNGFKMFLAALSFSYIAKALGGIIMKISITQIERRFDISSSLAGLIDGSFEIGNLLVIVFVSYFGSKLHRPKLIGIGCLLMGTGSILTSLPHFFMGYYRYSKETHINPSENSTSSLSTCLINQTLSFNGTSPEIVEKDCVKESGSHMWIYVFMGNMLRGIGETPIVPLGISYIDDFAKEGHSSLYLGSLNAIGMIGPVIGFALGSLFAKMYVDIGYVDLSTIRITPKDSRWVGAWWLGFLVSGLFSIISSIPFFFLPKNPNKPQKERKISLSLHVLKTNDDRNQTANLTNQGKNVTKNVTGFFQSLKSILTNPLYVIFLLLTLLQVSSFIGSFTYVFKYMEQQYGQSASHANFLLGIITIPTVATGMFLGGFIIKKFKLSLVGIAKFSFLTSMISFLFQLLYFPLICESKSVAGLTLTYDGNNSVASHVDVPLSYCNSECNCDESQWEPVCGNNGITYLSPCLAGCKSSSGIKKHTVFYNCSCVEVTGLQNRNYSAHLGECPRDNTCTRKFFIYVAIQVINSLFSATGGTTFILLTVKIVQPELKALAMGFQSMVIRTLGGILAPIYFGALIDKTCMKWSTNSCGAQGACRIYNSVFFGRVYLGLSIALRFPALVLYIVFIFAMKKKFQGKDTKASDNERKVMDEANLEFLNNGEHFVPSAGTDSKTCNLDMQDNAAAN

Substance | tested on | assay | test system | setting | how to read | measurement | result
Lucifer yellow | Broad substrate specificity ATP-binding cassette transporter ABCG2 (ABCG2, Homo sapiens, UniProt Q9UNQ0) | substrate | – | together with: AMP | – | uptake rate | 6.08 ± 0.734 pmol/min/mg
GSGSSRYWANATRSGG | T2/TAP1+2 cells | ER peptide stability | peptide | together with: tunicamycin 10 µg/mL, 45 min pretreatment | – | half-life | ~20 min
LVHYTHCGSLGV | Epstein-Barr virus | – | peptide, EBV-infected humanized B-NDG mice | 20 mg/kg, day 28 | – | body weight | 22.6 g and 22.3 g and 22.8 g
NLVPMVATV | HLA-A2 complex with compound | nanoDSF | peptide | pH 7.6, 2 µM complex | – | Tm | 64.9 ± 0.1 °C
B1 | – | sedimentation velocity AUC | 10 mM Tris-maleate | 50 µM, pH 6.4, 20 °C | – | sedimentation coefficient S20,w | 0.796 S
Polymyxin B | – | untargeted LC-MS metabolomics, refers to: L-methionine | Sprague-Dawley rat, right cerebral cortex | intracerebroventricular, 0.75 mg/kg, 1 h | reference: NaCl control | log2 fold change | -9.5
regorafenib N-β-glucuronide | – | – | Oatp1b2 knockout mice | oral, 10 mg/kg regorafenib | reference: wild-type mice | metabolite to parent ratio | 5.3 fold
SEKHFRETEV | human MAGI1-3/6 PDZ construct (MBP fusion) | automated holdup | peptide, crude extract | concentration not given, uncorrected, unit not given | reference: biotin control resin, higher = stronger binding | binding intensity | 0.165
FNA / CGLSGLGVA-NH2 ([18F]FNA-labelled, C-amide) | – | ex vivo gamma counting | peptide, healthy mouse, uterus | 60 min post injection | – | tissue uptake | 0.6 %ID/g
GSGAGKESYV | human MAGI1-2/6 PDZ construct (MBP fusion) | automated holdup | peptide, crude extract | concentration not given, uncorrected, unit not given | reference: biotin control resin, higher = stronger binding | binding intensity | 0.446
Rilpivirine docusate | – | – | octanol/water | room temperature | – | apparent logP | 2.87 and ~2.9
ILKEPVHGV | HLA-A2 complex with compound | nanoDSF | peptide | pH 7.6, 2 µM complex | – | Tm | 64.2 ± 0.1 °C
caspofungin | – | – | adult ICU patients, mITT, serum | dose not given, Baseline | – | albumin | 26 g/L
teicoplanin | Solute carrier organic anion transporter family member 1B3 (SLCO1B3, Homo sapiens, UniProt Q9NPD5) | inhibitor | – | – | – | IC50 | 7.5 µM
glutathione | PC-12 | CellTiter-Glo | – | 1 mM, 72 h | reference: vehicle | viability | 100% and 96.8% and 104% and 101%
RRVCLCYCRRRSCLCVCR (disulfide (positions not given here)) (disulfide) | human red blood cells | – | – | 128 µg/mL, 3 h, 37 °C | reference: Triton X-100 1% | haemolysis | 45.4%
Teicoplanin | – | refers to: stability | human serum | time not given, low QC, 3 freeze-thaw cycles | – | recovery | 96%

Some of these lines once more:
Substance | tested on | assay | test system | setting | how to read | measurement | result
teicoplanin | Solute carrier organic anion transporter family member 1B3 (SLCO1B3, Homo sapiens, UniProt Q9NPD5) | inhibitor | – | – | – | IC50 | 7.5 µM
glutathione | PC-12 | CellTiter-Glo | – | 1 mM, 72 h | reference: vehicle | viability | 100% and 96.8% and 104% and 101%
RRVCLCYCRRRSCLCVCR (disulfide (positions not given here)) (disulfide) | human red blood cells | – | – | 128 µg/mL, 3 h, 37 °C | reference: Triton X-100 1% | haemolysis | 45.4%
